Assay results gathered from unrelated publications.
Compare with care: the assays were run in different laboratories. Several values in a cell are separate wells, animals, samples, runs or records. Numbers after ± are the reported error. ≈ marks a conversion by molar mass, not a printed value.

Compound | tested on | assay | system | setting | scale | measurement | result
Fc1ccc(Nc2nc(NC3CCCCC3)c3cc(C(F)(F)F)ccc3n2)cc1F | β2AR/β1AR TM7 chimera | β-arrestin2 recruitment, antagonist, BRET |  |  | relative to: isoprenaline maximal response | maximal inhibition | -1.2%
C=CC(=O)Nc1cccc(Cn2ncc3cnc(Nc4cnn(CCOC)c4)nc32)c1 | PAK7 human | binding, KINOMEscan |  | 100 nM | lower = stronger binding | percent of control | 100%
Cc1cccc2c1N(C(=O)n1ccnn1)CC2 | Arabidopsis thaliana |  | wild type, seedlings | 3 µM, continuous red light, with: 0.3 µM karrikin KAR2 |  | hypocotyl length | 13.9 mm
COc1cc2c(NC3CCN(C(C)C)CC3)cc(N3CCOCC3)nc2cc1OCCCN1CCCC1 |  | TMT quantitative proteomics, item: GMFB | 5xFAD mice, hippocampus | dose not given |  | normalised protein abundance | 0.0729 and 0.0238 and 0.0279 and 0.0329 and 0.0438 and -0.00652 and 0.0512 and 0.00905
COC1OC(C)C(OC2OC(C)C(OS(=O)(=O)O)C(OC3OC(C)C(OC4OC(C)C(OS(=O)(=O)O)C(OC5OC(C)C(OC6OC(C)C(OS(=O)(=O)O)C(OC7OC(C)C(OC8OC(C)C(OS(=O)(=O)O)C(OC9OC(C)C(OC%10OC(C)C(OS(=O)(=O)O)C(OC%11OC(C)C(OS(=O)(=O)O)C(OS(=O)(=O)O)C%11O)C%10O)C(OS(=O)(=O)O)C9O)C8O)C(OS(=O)(=O)O)C7O)C6O)C(OS(=O)(=O)O)C5O)C4O)C(OS(=O)(=O)O)C3O)C2O)C(OS(=O)(=O)O)C1O (stereo not shown) |  |  | human plasma | 128 µg/mL |  | thrombin time | 10.2 ± 0.7 s
c1ccc(-c2n[nH]cc2-c2ccnc3ccccc23)nc1 | KIN2 (Candida albicans) | kinase binding, MIB/MS competition | Candida albicans lysate | 10 µM | relative to: DMSO | log2 fold change | -0.06
COc1cc(O)ccc1CCC(c1ccc(O)cc1)c1cc2c(c(C)c1O)OC(c1ccc(O)cc1)CC2 (mixture of isomers) |  | item: 17-HDHA | human whole blood | 0.3 µM, with: Escherichia coli |  | amount | 698 ± 217 pg/mL blood
COC1OC(C)C(O)C(OC2OC(C)C(O)C(OC3OC(C)C(O)C(OC4OC(C)C(O)C(OS(=O)(=O)O)C4OS(=O)(=O)O)C3OS(=O)(=O)O)C2OS(=O)(=O)O)C1OS(=O)(=O)O (stereo not shown) |  |  | human plasma | 128 µg/mL | relative to: control | thrombin time prolongation | 1 fold
CNS(=O)(=O)Nc1nccc(Cc2c(C)c3ccc(Oc4ncccc4F)cc3oc2=O)c1F | SK-MEL3 | cell viability |  | 7 days |  | IC50 | 5.81 nM
COC1OC(C)C(OC2OC(C)C(OS(=O)(=O)O)C(OC3OC(C)C(OS(=O)(=O)O)C(OS(=O)(=O)O)C3O)C2O)C(OS(=O)(=O)O)C1O (stereo not shown) |  |  | human plasma | 128 µg/mL |  | thrombin time | 9.6 ± 0.7 s
COC1CN([C@H]2CC[C@H]([C@@]3(C)Oc4c(Cl)cc(C(=O)NCc5c(SC)cc(C)[nH]c5=O)c(C)c4O3)CC2)C1 |  | RNA-seq, item: PDZD3 mouse homolog | mouse, HT-1376 xenograft, whole blood | dose not given | relative to: vehicle | log2 fold change | 2.18
COC1OC(C)C(OC2OC(C)C(O)C(OC3OC(C)C(OC4OC(C)C(O)C(OC5OC(C)C(OC6OC(C)C(O)C(OC7OC(C)C(OC8OC(C)C(O)C(OC9OC(C)C(OC%10OC(C)C(O)C(OC%11OC(C)C(OC%12OC(C)C(O)C(OS(=O)(=O)O)C%12OS(=O)(=O)O)C(OS(=O)(=O)O)C%11OS(=O)(=O)O)C%10OS(=O)(=O)O)C(OS(=O)(=O)O)C9OS(=O)(=O)O)C8OS(=O)(=O)O)C(OS(=O)(=O)O)C7OS(=O)(=O)O)C6OS(=O)(=O)O)C(OS(=O)(=O)O)C5OS(=O)(=O)O)C4OS(=O)(=O)O)C(OS(=O)(=O)O)C3OS(=O)(=O)O)C2OS(=O)(=O)O)C(OS(=O)(=O)O)C1OS(=O)(=O)O (stereo not shown) |  |  | human plasma | 128 µg/mL | relative to: control | thrombin time prolongation | 1 fold
COc1ccccc1-c1ccncc1C(=O)Nc1nnc(OCc2ccc(Cl)cc2)s1 | PEO1 BRCA2-mutant |  |  | 1.00 µM, with: olaparib 1 µM |  | colony survival | 0%
CC(C)c1ccc(N(C)c2ccc3c(c2)OCC[C@H]3CNc2cnccc2C(=O)O)cc1 | MDA-MB-415 | cell growth or viability, ATP luminescence |  | 7 days |  | IC50 | ≥ 10000 nM
COC1OC(C)C(O)C(OC2OC(C)C(O)C(OC3OC(C)C(O)C(OS(=O)(=O)O)C3OS(=O)(=O)O)C2OS(=O)(=O)O)C1OS(=O)(=O)O (stereo not shown) |  |  | human plasma | 128 µg/mL |  | thrombin time | 9.9 ± 0.6 s
C=CC(=O)N1[C@H](c2ccc3c(c2)OCO3)c2[nH]c3ccccc3c2C[C@@H]1C(=O)N1CCN(C)CC1 | human cyclin E1 N112C-3xFLAG:CDK2 | co-IP with TMT proteomics, item: PUF60 |  | concentration not given, Q9UHX1 | relative to: wild type DMSO | relative co-enrichment | 113%
C=C(NC(=O)c1csc(-c2nc3c(cc2O)-c2nc(cs2)C(=O)NC(C(C)O)C(=O)NC(=C(C)OC)c2nc(cs2)C(=O)NC2c4nc(cs4)C(=O)NC(COC(=O)c4c5c6c(cccc6n4O)COC(=O)C(OC4CC(C)(O)C(N(C)C)C(C)O4)C2OC5)c2nc-3cs2)n1)C(N)=O (stereo not shown) | Enterococcus faecalis | microbial growth, broth dilution |  | clinical isolate |  | MIC50 | 0.0312 µg/mL (≈ 0.0217 µM)
CCN(CC)CC(=O)Nc1cccc(-n2cc(-c3ccc4ccc(-c5cn(-c6cccc(NC(=O)CN(CC)CC)c6)nn5)cc4c3)nn2)c1 | RCC4 | PCR angiogenesis array, item: IFNA1 |  | 5 x IC50, 6 h, normoxia | relative to: untreated | fold regulation | -2.01
CN1CCCNC(=O)c2cccc(c2)C(=O)NCCCN(C)CCCNc2cccc3c2C(=O)c2cccc(c2C3=O)NCCC1 | SAS | RNA-Seq, item: ZSWIM4 mRNA |  | 1 µM, 6 h | relative to: untreated cells | log2 fold change | 1.38
Nc1ncc(-c2cc(-c3cnn(CC(F)(F)F)c3)ncc2F)nc1C(=O)NC1CNCC(F)C1 (stereo not shown) | MAP4K4 | KINOMEscan |  | 1 µM | relative to: DMSO control | remaining binding | 61%
Cc1c(CN(C)C(=O)/C=C/c2cnc3c(c2)CC(N)C(=O)N3)oc2ccccc12 (stereo not shown) | Enterobacter cloacae | broth microdilution | ATCC 29893 |  |  | MIC | 8 µg/mL (≈ 20.5 µM)
Cc1ncsc1-c1ccc(C(C)NC(=O)C2CC(O)CN2C(=O)C(NC(=O)CCCCCCCCCCN2CCCC(Nc3ncc(Cl)c(Nc4ccccc4S(=O)(=O)C(C)C)n3)C2)C(C)(C)C)cc1 (stereo not shown) | 22Rv1 | RNA-seq, item: LMX1B mRNA |  | concentration not given | relative to: DMSO | log2 fold change | -1.62

Excerpt of the above:
Compound | tested on | assay | system | setting | scale | measurement | result
Fc1ccc(Nc2nc(NC3CCCCC3)c3cc(C(F)(F)F)ccc3n2)cc1F | β2AR/β1AR TM7 chimera | β-arrestin2 recruitment, antagonist, BRET |  |  | relative to: isoprenaline maximal response | maximal inhibition | -1.2%
